Measured values pooled from the literature.
Lines come from different studies, so protocols differ. ± marks the error that the study gave.

For `CC[C@H](C)[C@H](NC(=O)[C@@H](Cc1c[nH]c2ccccc12)NC(=O)[C@@H]1CCCN1C(=O)[C@H](CCCCN)NC(=O)[C@H](CCCCN)NC(=O)CCNC(=O)CCNC(=O)CN1CCN(CC(=O)O)CCN(CC(=O)O)CCN(CC(=O)O)CC1)C(=O)N[C@@H](C[Si](C)(C)C)C(=O)O` [gallium-68 labelled], the tissue uptake was 21.8 ± 3 %ID/g (ex vivo biodistribution; nude mice, HT-29 xenograft, kidneys; 90 min, together with: levocabastine 0.5 µmol).
`CC[C@H](C)[C@H](NC(=O)[C@H](CCCCN)NC(=O)CNC(=O)[C@H](CC(C)C)NC(=O)[C@H](Cc1ccccc1)NC(=O)[C@H](CCCCN)NC(=O)[C@H](CO)NC(=O)[C@H](Cc1ccccc1)NC(=O)[C@H](Cc1c[nH]c2ccccc12)NC(=O)[C@H](CCC(N)=O)NC(=O)[C@@H](NC(=O)[C@H](Cc1ccccc1)NC(=O)CCCCCNC(=O)CN1CCN(CC(=O)O)CCN(CC(=O)O)CCN(CC(=O)O)CC1)C(C)C)C(=O)N[C@@H](CCC(=O)O)C(=O)N1CCC[C@H]1C(=O)N[C@H](CC(=O)O)C(=O)N[C@H](C(=O)N[C@@H](CO)C(=O)N[C@@H](CCC(N)=O)C(=O)N[C@H](C(=O)N[C@@H](CCC(N)=O)C(=O)N[C@@H](CC(=O)O)C(=O)N1CCC[C@H]1C(=O)N[C@@H](CC(N)=O)C(=O)N[C@@H](CC(=O)O)C(=O)N[C@@H](CCC(N)=O)C(=O)N[C@@H](Cc1ccc(O)cc1)C(=O)N[C@@H](CCC(=O)O)C(=O)N1CCC[C@H]1C(=O)N[C@@H](Cc1ccccc1)C(=O)O)C(C)C)C(C)C` [copper-64 labelled] gave a tissue uptake of 1.55 ± 0.1 %ID/g (female mice, EMT6 tumour-bearing, tumor; 2 h, uncleavable control tracer, vehicle-treated).
For `C[C@H](O)[C@@H](NC(=O)[C@H]1CCCN1C(=O)[C@@H](CCCCN)NC(=O)[C@@H](CO)NC(=O)[C@@H](Cc1ccc(O)cc1)NC(=O)[C@@H](CC(N)=O)NC(=O)CCOCCOCCOCCNC(=O)CN1CCN(CC(=O)O)CCN(CC(=O)O)CCN(CC(=O)O)CC1)C(=O)N[C@H](CC(=O)O)C(=O)N[C@H](CCCNC(=N)N)C(=O)N[C@H](CCC(N)=O)C(=O)N[C@H](Cc1ccc(O)cc1)C(=O)N[C@H](Cc1c[nH]cn1)C(=O)N[C@H](Cc1ccccc1)C(N)=O` [copper-64 labelled], the tissue uptake was 0.05 ± 0.01 %ID/g (C57BL/6J mice, brain; intravenous, 1.85 MBq, 0.6667 h, radiolabelled).
`CCCC[C@H]1C(=O)N(C)[C@@H](CCCC)C(=O)N[C@@H](CCCNC(=O)CN2CCN(CC(=O)O)CCN(CC(=O)O)CCN(CC(=O)O)CC2)C(=O)N[C@H](C(=O)NCC(N)=O)CSCC(=O)N[C@@H](Cc2ccc(O)cc2)C(=O)N(C)[C@@H](C)C(=O)N[C@@H](CC(N)=O)C(=O)N2CCC[C@H]2C(=O)N[C@@H](Cc2c[nH]cn2)C(=O)N[C@@H](CC(C)C)C(=O)N(C)CC(=O)N[C@@H](Cc2c[nH]c3ccccc23)C(=O)N[C@@H](CO)C(=O)N[C@@H](Cc2c[nH]c3ccccc23)C(=O)N1C` [gallium-68 labelled] gave a tissue uptake of 5.82 ± 2.51 %ID/g (NOD/SCID mice with CHO-hPD-L1 xenograft, blood; 120 min post injection).
With `CC[C@H](C)[C@H](NC(=O)[C@H](CCCNC(=N)N)NC(=O)[C@H](CCCCN)NC(=O)[C@H](Cc1ccc(O)cc1)NC(=O)[C@H](CC(=O)O)NC(=O)[C@H](C)NC(=O)CNC(=O)CCOCCOCCOCCNC(=O)CN1CCN(CC(=O)O)CCN(CC(=O)O)CCN(CC(=O)O)CC1)C(=O)N[C@H](C(=O)N[C@@H](CC(C)C)C(=O)N[C@@H](CCCCN)C(=O)N[C@H](C(=O)N[C@@H](CC(N)=O)C(N)=O)C(C)C)[C@@H](C)O` [copper-64 labelled] the tissue uptake was 1.8 ± 0.127 %ID/g (ex vivo gamma counting; C57BL/6J male mice, B16-F10 tumour, stomach; intravenous, 1.85 MBq, 5 min).
`CC(C)C[C@@H](NC(=O)[C@@H](CCCNC(=N)N)NC(=O)[C@@H](Cc1c[nH]cn1)NC(=O)[C@@H](Cc1c[nH]c2ccccc12)NC(=O)[C@@H](Cc1c[nH]cn1)NC(=O)[C@@H](Cc1ccccc1)NC(=O)[C@H](NC(=O)[C@@H](Cc1ccc(O)cc1)NC(=O)CNC(=O)CNC(=O)CCOCCOCCOCCNC(=O)CN1CCN(CC(=O)O)CCN(CC(=O)O)CC1)[C@H](C)O)C(=O)N[C@H](CC(N)=O)C(=O)N1CCC[C@@H]1C(=O)O` [gallium-68 labelled] gave a tissue uptake of 1.07 ± 0.3 %ID/g (gamma counting; C57BL/6 mice, male, stomach; intravenous, 1.85 MBq, 60 min).
The tissue uptake of `CC[C@H](C)[C@H](NC(=O)[C@H](CCCNC(=N)N)NC(=O)[C@H](CCCCN)NC(=O)[C@H](Cc1ccc(O)cc1)NC(=O)[C@H](CC(=O)O)NC(=O)[C@H](C)NC(=O)CNC(=O)CCOCCOCCOCCNC(=O)CN1CCN(CC(=O)O)CCN(CC(=O)O)CCN(CC(=O)O)CC1)C(=O)N[C@H](C(=O)N[C@H](C(=O)N[C@@H](CCCCN)C(=O)N[C@H](C(=O)N[C@@H](CC(N)=O)C(N)=O)C(C)C)C(C)C)[C@@H](C)O` [copper-64 labelled] is reported as 0.079 ± 0.005 %ID/g (ex vivo gamma counting; C57BL/6J male mice, B16-F10 tumour, brain; intravenous, 1.85 MBq, 100 min).
`CSCC[C@H](NC(=O)CNC(=O)[C@H](CCCCN)NC(=O)[C@H](CC(C)C)NC(=O)[C@@H]1CCCN1C(=O)[C@H](CO)NC(=O)[C@H](Cc1c[nH]cn1)NC(=O)[C@H](Cc1c[nH]c2ccccc12)NC(=O)[C@H](CCCNC(=N)N)NC(=O)[C@H](CC(C)C)NC(=O)[C@H](CCCNC(=N)N)NC(=O)[C@H](Cc1c[nH]c2ccccc12)NC(=O)[C@H](CS)NC(=O)CCCCCNC(=O)CN1CCN(CC(=O)O)CCN(CC(=O)O)CCN(CC(=O)O)CC1)C(=O)O` [copper-64 labelled] gave a tissue uptake of 3.15 %ID/g (C57BL/6J mice, B16-F10 tumour, blood; intravenous, 1.85 MBq, 0.5 h).

Excerpt of the above:
The tissue uptake of `CC[C@H](C)[C@H](NC(=O)[C@H](CCCNC(=N)N)NC(=O)[C@H](CCCCN)NC(=O)[C@H](Cc1ccc(O)cc1)NC(=O)[C@H](CC(=O)O)NC(=O)[C@H](C)NC(=O)CNC(=O)CCOCCOCCOCCNC(=O)CN1CCN(CC(=O)O)CCN(CC(=O)O)CCN(CC(=O)O)CC1)C(=O)N[C@H](C(=O)N[C@H](C(=O)N[C@@H](CCCCN)C(=O)N[C@H](C(=O)N[C@@H](CC(N)=O)C(N)=O)C(C)C)C(C)C)[C@@H](C)O` [copper-64 labelled] is reported as 0.079 ± 0.005 %ID/g (ex vivo gamma counting; C57BL/6J male mice, B16-F10 tumour, brain; intravenous, 1.85 MBq, 100 min).
